Assay results collected from several papers.
Every numbered part comes from another study and shows a few of its results, in no order. Changes are numbered by the printed parent chain.

Sample 1
Target: Fragile X messenger ribonucleoprotein 1, C-terminal low-complexity region (Fmr1, Mus musculus, UniProt P35922)
Technique: RNA Bind-n-Seq
Molecule type: RNA
Sample: in vitro
Concentration: 200 nM
Notes: whole 134-nt RNA, ends assumed
Together with: 150 mM KCl
Baseline: input library
Direction: higher = stronger binding
Constant ends, left off below: GGGAGUUCUACAGUCCGACGAUC … UGGAAUUCUCGGGUGUCAAGG
Strand | log2 enrichment
UGGGAGGUGGAUUUUGUCUAUUUUUUUAGCUCAUUUCCAGGGGUGGGAAUUUUUUUUUAAUAUGUGUCAUGAAUAAAGUUGUUUUUGAAA | 0.16
GUCCUGUGCUACACAUCGUAUGUACCGAAUCGGGUGGGAAAAAAAGGGUUUUUUUGGGAAAGUAUUAUGUUACGCCGUUCGGAUCUGCAC | 0.136
UCCUGUGCUACACAUCGUAUGUACCGAAUCGGGAAAAAAGGGGAAAAAAGGAAAAAAGGAAAGUAUUAUGUUACGCCGUUCGGAUCUGCA | -0.317
UAACUUUAGAGGAGGAUCUGAUGGAUAUGGCAGUGGACGUGGAUUUGGGGAUCGCUAUAAUGGGUAUGGAGGAGGACCUGGAGGUGGCAA | 0.14
GCAGGAAGUAAAAACAAAUGGAAAUGCUUCGGAUAGUGGCAGGGGUGGGGGUUGCUGAGGAAAGGGUGGGAUGGGAGUGGGUAAAGAGUU | 0.345
CAAGUCCUGUGCUACACAUCGUAUGUACCGAAUCGGAGGAAAAAGGAAAAAAAGGAAAGUAUUAUGUUACGCCGUUCGGAUCUGCACUUC | -0.601
UGGCCCUGGUGGCAUGAGGGGAGGAAGAGGUGGCCUCAUGGAUCGUGGUGGUCCCGGUGGAAUGUUCAGAGGUGGCCGUGGUGGAGACAG | 0.259
GUCCUGUGCUACACAUCGUAUGUACCGAAUCGGGGUUUUUGGUUUUUGGGGUUUUUGGAAAGUAUUAUGUUACGCCGUUCGGAUCUGCAC | -0.166
ACCAUGCAGGUGGGCAUCUUUGGGAAGUGGGGCAAGGGGGGGAUAGGGAGGGGGGUAACACUUCGGGAACAGGUGGUCCCAGGUCGUUUC | 0.843

Sample 2
Target: CCND3, cyclin fold, Cln2 fusion (human)
Technique: yeast growth competition, sequencing
Sample: yeast
Notes: weak parent motif
Baseline: not given
Direction: higher = stronger binding
Starting sequence: DOT1L docking peptide (human); SEAKRRIVFTITT; partner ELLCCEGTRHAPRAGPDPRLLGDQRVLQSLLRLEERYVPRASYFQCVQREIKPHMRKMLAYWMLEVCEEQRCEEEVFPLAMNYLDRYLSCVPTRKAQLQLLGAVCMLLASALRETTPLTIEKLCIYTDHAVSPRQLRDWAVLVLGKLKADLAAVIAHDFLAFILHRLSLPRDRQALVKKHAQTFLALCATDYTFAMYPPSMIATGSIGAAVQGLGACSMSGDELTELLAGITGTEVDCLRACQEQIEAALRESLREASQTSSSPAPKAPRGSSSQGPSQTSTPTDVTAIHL
Change | normalised enrichment score
F9A | 0.164
K4A | 0.362
I11A | -0.0507
T12A | 0.383
S1A | 0.526
E2A | 0.271

Sample 3
Target: Sal-like protein 4, full length isoform A (SALL4, Homo sapiens, UniProt Q9UJQ4, residues 1-1053)
Sequence of UniProt Q9UJQ4 (whole entry, looked up): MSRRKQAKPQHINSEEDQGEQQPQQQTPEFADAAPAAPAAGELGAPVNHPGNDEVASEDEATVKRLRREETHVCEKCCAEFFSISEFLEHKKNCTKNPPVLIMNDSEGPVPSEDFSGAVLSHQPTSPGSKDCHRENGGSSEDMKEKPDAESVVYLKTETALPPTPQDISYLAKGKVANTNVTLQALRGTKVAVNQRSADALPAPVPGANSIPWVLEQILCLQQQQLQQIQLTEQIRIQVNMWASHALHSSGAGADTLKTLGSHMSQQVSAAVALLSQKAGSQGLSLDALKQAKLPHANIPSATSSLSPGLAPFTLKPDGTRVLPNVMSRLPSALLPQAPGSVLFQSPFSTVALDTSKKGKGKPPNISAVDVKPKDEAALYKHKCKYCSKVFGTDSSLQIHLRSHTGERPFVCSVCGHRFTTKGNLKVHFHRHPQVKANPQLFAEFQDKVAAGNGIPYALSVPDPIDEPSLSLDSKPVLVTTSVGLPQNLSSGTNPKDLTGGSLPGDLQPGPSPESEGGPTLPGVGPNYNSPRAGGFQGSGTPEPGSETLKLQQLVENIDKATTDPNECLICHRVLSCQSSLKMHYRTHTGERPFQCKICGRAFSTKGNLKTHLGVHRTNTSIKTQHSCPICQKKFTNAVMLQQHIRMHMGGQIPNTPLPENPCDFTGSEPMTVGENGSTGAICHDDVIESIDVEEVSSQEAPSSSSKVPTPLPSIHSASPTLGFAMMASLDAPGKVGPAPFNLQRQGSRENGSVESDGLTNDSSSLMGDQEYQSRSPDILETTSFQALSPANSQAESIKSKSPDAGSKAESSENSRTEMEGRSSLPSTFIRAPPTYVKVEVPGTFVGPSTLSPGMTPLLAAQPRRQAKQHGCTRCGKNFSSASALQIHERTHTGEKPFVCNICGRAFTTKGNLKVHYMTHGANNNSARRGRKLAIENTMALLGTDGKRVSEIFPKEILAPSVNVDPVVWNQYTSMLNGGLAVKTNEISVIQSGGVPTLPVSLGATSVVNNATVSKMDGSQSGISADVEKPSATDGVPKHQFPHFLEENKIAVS
Technique: universal PBM
Molecule type: double-stranded DNA, one strand shown
Sample: in vitro
Concentration: 600 nM
Notes: 8-mer, flanks averaged, mean of replicates
Direction: higher = stronger binding
Strand | E-score
ACTGGTTC | -0.104
GGGTTGAC | -0.247
ACCGTGAA | -0.155
CAGGGCGC | -0.32
CTGTGTGA | -0.0195
TACCGTCA | -0.073
GACGTGCC | -0.338
GGGAGGAA | -0.081
ATTTTAGG | 0.231

Further values, each from its own experiment
Substance | target | assay | system | setting | how to read | quantity | result
PhoQ, residues 284 288 289 292 302 303 TNASYF | PhoP, residues 12 14 15 18 19 LHHSG (Escherichia coli, UniProt P23836) | Sort-seq, refers to: YFP reporter | E. coli | PhoQ-PhoP variant library, together with: 10 µM Mg2+ | baseline: high Mg2+ state, higher = stronger signaling | fold induction | 7.09

Repeated from above (sample 3):
Strand | E-score
ACTGGTTC | -0.104
CTGTGTGA | -0.0195
GGGAGGAA | -0.081
GACGTGCC | -0.338
